Measurements from different studies.
Each line is one published result; not all experiments were run side by side. ± marks the error that the study gave. Where no end group is shown, it is not given here.
UGT1A9: UDP-glucuronosyltransferase 1A9 (UGT1A9, Homo sapiens, UniProt O60656)
chemosensory protein 1: chemosensory protein 1 (Chilo suppressalis, UniProt V9PY22)
GPR17: Uracil nucleotide/cysteinyl leukotriene receptor (GPR17, Homo sapiens, UniProt Q13304)
ALB: Albumin (ALB, Homo sapiens, UniProt P02768)
SLC10A1: Hepatic sodium/bile acid cotransporter (SLC10A1, Homo sapiens, UniProt Q14973)
Protein farnesyltransferase: Protein farnesyltransferase (Homo sapiens, UniProt P49354+P49356)
T1: RNA aptamer; CUUGGUUUAGGUAAUGAG
B1: side-chain stapled; chain AACSFRINSLCG (also: sidechain bridge or staple (positions not given here))

Molecule	target	assay	test system	conditions	how to read	measurement	result
O=C(O)[C@H]1O[C@@H](O[C@H]2c3cc4ccc5cccc6c7ccccc7c(c3C=C[C@@H]2O)c4c56)[C@H](O)[C@@H](O)[C@@H]1O (relative stereo)	UGT1A9	glucuronidation, substrate	UGT-expressing HEK293 homogenate	normalized to UGT expression	–	kcat	0.008 ± 0.000667 s⁻¹
CCCCCC/C=C\CCCCCCCC=O	chemosensory protein 1	binding, competitive ligand, fluorescence competitive binding	–	highest concentration tested, pH 7.4, protein 2 µM, with: 1-NPN 2 µM	reference: no ligand	remaining 1-NPN fluorescence	44.8 ± 2.25%
N.N.N.O=c1[nH]c(=O)n([C@@H]2O[C@H](COP(=O)(O)OP(=O)(O)O)[C@@H](O)[C@H]2O)cc1I	GPR17	frontal affinity chromatography-MS	immobilized on IAM column	1 µM, compound mixture	–	breakthrough time	4.06 min
Nc1ncnc2c1ncn2[C@@H]1O[C@H](COP(=O)(O)OP(=O)(O)OP(=O)(O)O)[C@@H](O)[C@H]1O	ALB	binding, native ESI-FT-ICR MS	–	3 µM, saturation curve	–	bound fraction	0.644 ± 0.0138
CC[C@H](C)[C@H](NC(=O)[C@H](C)NC(=O)[C@H](CC(=O)O)NC(=O)[C@H](C)NC(=O)[C@H](CC(C)C)NC(=O)[C@@H](NC(=O)[C@@H](NC(=O)[C@H](CC(C)C)NC(=O)[C@H](CCCNC(=N)N)NC(=O)[C@H](Cc1c[nH]cn1)NC(=O)[C@@H](NC(=O)[C@H](CCCNC(=N)N)NC(=O)[C@@H]1CCCN1C(=O)[C@@H](NC(=O)[C@H](CCC(N)=O)NC(=O)CN)C(C)C)[C@@H](C)O)[C@@H](C)CC)[C@@H](C)O)C(=O)N[C@@H](CS)C(=O)N[C@@H](CCC(N)=O)C(=O)N[C@H](C(=O)N[C@H](C(=O)N[C@H](C(=O)N[C@@H](CCC(N)=O)C(=O)N[C@@H](CC(=O)O)C(=O)N[C@@H](Cc1ccccc1)C(=O)N[C@@H](C)C(=O)N[C@@H](CCCNC(=N)N)C(=O)O)[C@@H](C)O)[C@@H](C)CC)[C@@H](C)CC	Nuclear receptor subfamily 1 group D member 1 (NR1D1, Homo sapiens, UniProt P20393)	NCoR peptide binding, competitor, TR-FRET	–	1 h, with: labelled NCoR 2040-2065 peptide	reference: mutant over wild-type peptide	IC50 fold change	1.2
C[N+](C)(C)CCOC(N)=O	Gs/olf proteins	[3H]GDP binding SPA	CHO cell membranes	10 µM, with: [3H]GDP 500 nM	reference: control	GDP dissociation rate increase	1.8 fold
Clc1ccc(COC(Cn2ccnc2)c2ccc(Cl)cc2Cl)c(Cl)c1 (stereo not drawn)	SLC10A1	inhibitor	NTCP-HEK293	50 µM	reference: without compound	taurocholate uptake	94.6 ± 2.6%
Nc1ncnc2c1ncn2[C@@H]1O[C@H](COP(=O)(O)OP(=O)(O)O)[C@@H](O)[C@H]1O	Kinesin heavy chain, motor domain 1-346 (Khc, Drosophila melanogaster, UniProt P17210)	FRET chase	–	25 °C, 0% glycerol, with: excess mant-dADP	–	dissociation rate constant	0.0043 ± 0.0005 s⁻¹
COc1ccc2[nH]c([S+]([O-])Cc3ncc(C)c(OC)c3C)nc2c1 (stereo not drawn)	SLC10A1	inhibitor	HEK293 expressing NTCP	100 µM, 5 min, with: taurocholate 10 µM	reference: no compound	taurocholate uptake	105 ± 6%
COc1ccc(/C=C/c2ccc(B3OC(C)(C)C(C)(C)O3)cc2)cc1	ALB	fluorescence quenching, van't Hoff	–	concentration not given	–	binding enthalpy	0.155 kcal/mol
O=P(O)(O)OC[C@H]1OC(O)(COP(=O)(O)O)[C@@H](O)[C@@H]1O (stereo partly drawn)	Pyruvate kinase 1 (Aedes aegypti, UniProt Q16F38)	thermal shift	–	500 µM, pH 7.5	–	ΔTm	3.33 °C
OC[C@H]1OC(O)[C@H](O)[C@@H](O)[C@H]1O (stereo partly drawn)	Glucose transporter 4 (Clonorchis sinensis, UniProt G7YT60)	[3H]deoxy-D-glucose uptake	Clonorchis sinensis, Xenopus oocytes	10 mM, pH 7.4	–	uptake inhibition	24 ± 1.9%
Oc1cc(O)c2c(c1)O[C@H](c1cc(O)c(O)c(O)c1)[C@H](O)C2	UGT1A9	substrate	–	pH 7.4, 37 °C	–	Vmax	5130 pmol/mg/min
CNc1nc(Cl)cc2c1ncn2[C@@H]1O[C@H](COP(=O)(O)OP(=O)(O)OP(=O)(O)O)[C@@H](O)[C@H]1O.N.N.N.N	GPR17	frontal affinity chromatography-MS	immobilized on IAM column	1 µM, compound mixture	–	breakthrough time	11.1 min
COc1cc2c(NC3CCN(CCCC(=O)NCCCCCCCCCC(=O)N[C@H](C(=O)N4C[C@H](O)C[C@H]4C(=O)NCc4ccc(-c5scnc5C)cc4)C(C)(C)C)CC3)nc(N3CCC(F)(F)CC3)nc2cc1OCCCN1CCCC1	Histone-lysine N-methyltransferase EHMT2 (EHMT2, Homo sapiens, UniProt Q96KQ7)	degrader, western blot	–	0.3 µM, 24 h	reference: DMSO	degradation	67 ± 22%
NC[C@H]1O[C@H](O[C@H]2[C@H](O)[C@@H](O[C@H]3O[C@H](CO)[C@@H](O)[C@H](N)[C@H]3O)[C@H](N)C[C@@H]2N)[C@H](N)C[C@@H]1O	T1, RNA aptamer	square wave voltammetry	–	pH 7.4, NaCl 100 mM, electrochemical aptamer sensor	–	Kd	70 nM
Cc1c(NC(=O)c2cccnc2)c(=O)n(-c2ccccc2)n1C	E3 ubiquitin-protein ligase TRIM63 (TRIM63, Homo sapiens, UniProt Q969Q1)	enzyme activity, inhibitor, in vitro ubiquitination, refers to: dystrophin	–	–	–	poly-ubiquitin chain formation	inhibited

Molecule	target	assay	test system	conditions	how to read	measurement	result
C[C@H](NC(=O)[C@H](Cc1c(F)c(F)c(F)c(F)c1F)NC(=O)[C@@H](NC(=O)[C@H](Cc1ccccc1)NC(=O)[C@H](C)NC(=O)[C@H](CCCNC(=N)N)N(C)C(=O)[C@@H]1CCCN1C(=O)[C@H](CCCNC(=N)N)NC(=O)CNC(=O)c1ccc2c(c1)C1(OC2=O)c2ccc(O)cc2Oc2cc(O)ccc21)[C@@H](C)O)C(=O)N[C@@H](CCC(=O)O)C(=O)NCC(N)=O	RAC-alpha serine/threonine-protein kinase (AKT1, Homo sapiens, UniProt P31749)	substrate, CE-LIF	–	25 µM, pH 7.0, 30 °C, enzyme 6 nM, with: ATP 1 mM	–	time to half phosphorylation	174 min
CC(C)=CCC/C(C)=C/CC/C(C)=C/CO	Alcohol dehydrogenase 1 (Adh1, Rattus norvegicus, UniProt P06757)	substrate	–	0.1 mM, pH 7.4, with: 2 mM NAD+	–	dehydrogenase activity	0.68 U/mg
CC(=O)N1CCN(c2ccc(OCC3COC(Cn4ccnc4)(c4ccc(Cl)cc4Cl)O3)cc2)CC1 (stereo not drawn)	SLC10A1	inhibitor	HEK293 expressing NTCP	100 µM, 5 min, with: taurocholate 10 µM	reference: no compound	taurocholate uptake	59.1 ± 3%
CN(C)C/C=C/C(=O)Nc1cccc(C(=O)Nc2ccc(Nc3nccc(-c4c(-c5ccccc5)nn5ccccc45)n3)cc2)c1	Phosphatidylinositol 3-kinase catalytic subunit type 3 (PIK3C3, Homo sapiens, UniProt Q8NEB9)	ATP-biotin probe labeling, KiNativ	A-375	1 µM, 3 h, second of two sites	–	inhibition	-11%
B1	Dipeptidyl peptidase 4 (DPP4, Homo sapiens, UniProt P27487)	enzyme activity	–	200 µM, 37 °C	reference: FAPα over DPP4	selectivity ratio	9 fold
CSLL	Protein farnesyltransferase	enzyme activity, substrate, fluorimetric	peptide	3 µM, 30 min, with: 9 µM farnesyl diphosphate	reference: dansyl-GCVLS (set to 1.0)	relative fluorescence increase	0
O=C(O)/C(O)=C/C=C\Br	xylH (Pseudomonas putida, UniProt Q01468)	irreversible inactivation, covalent inhibitor	–	pH 7.3, 24 °C	–	KI	60000 nM
CN(Cc1ccc(CN(C)Cc2cccc(F)c2)cc1)Cc1cccc(F)c1	C-X-C chemokine receptor type 4 (CXCR4, Homo sapiens, UniProt P61073)	binding, competition binding	MDA-MB-231	semi-quantitative screen, with: biotinylated TN14003	–	lowest effective concentration	> 1000 nM
N#Cc1ccccc1Oc1ccc(Br)cc1O	Enoyl-[acyl-carrier-protein] reductase [NADPH] FabI (Staphylococcus aureus, UniProt Q6GI75)	enzyme activity, inhibitor, progress curve kinetics, refers to: NADPH	–	–	–	Ki	0.05 nM
CCCCCCCCCCCC(=O)O	Chilo suppressalis CSP2	binding, competitive ligand, fluorescence competitive binding	–	highest concentration tested, pH 7.4, protein 2 µM, with: 1-NPN 2 µM	reference: no ligand	remaining 1-NPN fluorescence	75.9 ± 3.78%
CTLL	Protein farnesyltransferase	enzyme activity, substrate, fluorimetric	peptide	3 µM, 30 min, with: 9 µM farnesyl diphosphate	reference: dansyl-GCVLS (set to 1.0)	relative fluorescence increase	0
O=C(O)c1ccc(NC(c2ccc3cccnc3c2O)C2CCCCC2)cc1 (stereo not drawn)	CAAX prenyl protease 2 (Homo sapiens, UniProt Q9Y256)	enzyme activity, inhibitor	–	10 µM	–	remaining activity	< 40%
CCC/C=C/C=O	chemosensory protein 1	binding, competitive ligand, fluorescence competitive binding	–	highest concentration tested, pH 7.4, protein 2 µM, with: 1-NPN 2 µM	reference: no ligand	remaining 1-NPN fluorescence	56.7 ± 0.97%
Nc1nc(N)c2nc(-c3ccccc3)c(N)nc2n1	SLC10A1	inhibitor	HEK293 expressing NTCP	100 µM, 5 min, with: taurocholate 10 µM	reference: no compound	taurocholate uptake	85.7 ± 4.3%
O=C(Cn1ccc2ccccc21)N(c1ccc(F)cc1)c1ccc(F)cc1	Proteasome subunit alpha type-2/Proteasome subunit alpha type-6, 20S proteasome (Homo sapiens, UniProt P25787+P60900)	proteolysis, activator, fluorogenic peptide	purified 20S proteasome	up to 30 µM, with: Suc-LLVY-AMC, Z-LLE-AMC, Boc-LRR-AMC	reference: vehicle	maximum fold increase	4.4
CGGL	Protein farnesyltransferase	enzyme activity, substrate, fluorimetric	peptide	3 µM, 30 min, with: 9 µM farnesyl diphosphate	reference: dansyl-GCVLS (set to 1.0)	relative fluorescence increase	0

A few entries again:
Molecule	target	assay	test system	conditions	how to read	measurement	result
Nc1ncnc2c1ncn2[C@@H]1O[C@H](COP(=O)(O)OP(=O)(O)OP(=O)(O)O)[C@@H](O)[C@H]1O	ALB	binding, native ESI-FT-ICR MS	–	3 µM, saturation curve	–	bound fraction	0.644 ± 0.0138
CC[C@H](C)[C@H](NC(=O)[C@H](C)NC(=O)[C@H](CC(=O)O)NC(=O)[C@H](C)NC(=O)[C@H](CC(C)C)NC(=O)[C@@H](NC(=O)[C@@H](NC(=O)[C@H](CC(C)C)NC(=O)[C@H](CCCNC(=N)N)NC(=O)[C@H](Cc1c[nH]cn1)NC(=O)[C@@H](NC(=O)[C@H](CCCNC(=N)N)NC(=O)[C@@H]1CCCN1C(=O)[C@@H](NC(=O)[C@H](CCC(N)=O)NC(=O)CN)C(C)C)[C@@H](C)O)[C@@H](C)CC)[C@@H](C)O)C(=O)N[C@@H](CS)C(=O)N[C@@H](CCC(N)=O)C(=O)N[C@H](C(=O)N[C@H](C(=O)N[C@H](C(=O)N[C@@H](CCC(N)=O)C(=O)N[C@@H](CC(=O)O)C(=O)N[C@@H](Cc1ccccc1)C(=O)N[C@@H](C)C(=O)N[C@@H](CCCNC(=N)N)C(=O)O)[C@@H](C)O)[C@@H](C)CC)[C@@H](C)CC	Nuclear receptor subfamily 1 group D member 1 (NR1D1, Homo sapiens, UniProt P20393)	NCoR peptide binding, competitor, TR-FRET	–	1 h, with: labelled NCoR 2040-2065 peptide	reference: mutant over wild-type peptide	IC50 fold change	1.2
O=P(O)(O)OC[C@H]1OC(O)(COP(=O)(O)O)[C@@H](O)[C@@H]1O (stereo partly drawn)	Pyruvate kinase 1 (Aedes aegypti, UniProt Q16F38)	thermal shift	–	500 µM, pH 7.5	–	ΔTm	3.33 °C
